Published values pooled from the literature.
Lines come from different studies, so protocols differ. Values joined by “and” are separate records of one study, mostly repeats; a detail may differ. Numbers after ± are the reported error. Values after ≈ are worked out from the molar mass of the structure shown.
Ugcg: Ceramide glucosyltransferase (Ugcg, Mus musculus, UniProt O88693)
Sequence of UniProt O88693 (whole entry, looked up): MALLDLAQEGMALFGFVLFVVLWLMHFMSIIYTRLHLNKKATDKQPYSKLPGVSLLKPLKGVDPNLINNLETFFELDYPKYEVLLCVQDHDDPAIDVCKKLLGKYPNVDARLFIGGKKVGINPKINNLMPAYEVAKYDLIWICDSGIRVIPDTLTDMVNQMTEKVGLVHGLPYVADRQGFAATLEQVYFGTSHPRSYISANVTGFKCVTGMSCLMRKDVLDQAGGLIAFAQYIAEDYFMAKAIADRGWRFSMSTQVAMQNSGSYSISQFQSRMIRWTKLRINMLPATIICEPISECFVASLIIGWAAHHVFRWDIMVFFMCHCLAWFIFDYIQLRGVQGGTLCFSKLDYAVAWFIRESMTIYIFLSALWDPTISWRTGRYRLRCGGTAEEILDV

SMILES	target or system	assay	test system	setting	scale	measurement	result
CC(C)C[C@H](NC(=O)[C@@H](CCCCNC(=O)[C@@H](Cc1ccccc1)NC(=O)CCCCCNC(=O)CN1CCN(CC(=O)O)CCN(CC(=O)O)CCN(CC(=O)O)CC1)NC(=O)[C@H](Cc1ccc(O)cc1)NC(=O)[C@H](CO)NC(=O)[C@H](Cc1c[nH]c2ccccc12)NC(=O)[C@H](Cc1c[nH]cn1)NC(=O)[C@@H]1CCC(=O)N1)C(=O)N[C@@H](CCCNC(=N)N)C(=O)N1CCC[C@H]1C(=O)NCC(N)=O [indium-111 labelled]			female athymic nude mice, spleen	intravenous, 0.037 MBq, 0.5 h		tissue uptake	0.37 ± 0.08 %ID/g
C=C(NC(=O)c1csc(-c2nc3c(cc2O)-c2nc(cs2)C(=O)NC(C(C)O)C(=O)NC(=C(C)OC)c2nc(cs2)C(=O)NC2c4nc(cs4)C(=O)NC(COC(=O)c4c5c6c(cccc6n4O)COC(=O)C(OC4CC(C)(O)C(N(C)C)C(C)O4)C2OC5)c2nc-3cs2)n1)C(N)=O (centres unmarked)			Sprague-Dawley rats, female, plasma	intravenous infusion, 6 mg/kg, day 1, multiple dosing		AUC(0-inf)	2070 ng·h/mL
O=C(CC(F)(F)F)Nc1ccc([C@H]2[C@@H](F)[C@@H](F)C[C@@H](F)[C@H]2F)cc1		hepatocyte stability	cryopreserved mouse hepatocytes	1 µM		hepatic clearance	58 mL/min/kg
O=C(N/N=C/c1cc[n+](Cc2ccccc2)c2ccccc12)c1cncc(C(=O)N/N=C/c2cc[n+](Cc3ccccc3)c3ccccc23)n1	22CTA telomeric G4-DNA antiparallel	FRET melting		1 µM, K10 buffer, DNA 0.2 µM		ΔTm	16.8 ± 0.2 °C
COc1cccc(OC)c1-c1cc(C(=O)NC2(C(=O)O)C3CC4CC(C3)CC2C4)nn1-c1ccc(C(=O)N(C)CCOCCOCCN(C)C(=O)[C@H](CCCCNC(=O)[C@H](CC(C)C)NC(=O)C2OC2C(=O)O)NC(=O)CN2CCN(CC(=O)[O-])CCN(CC(=O)[O-])CCN(CC(=O)[O-])CC2)cc1C(C)C.[177Lu+3] (mixture of isomers)			mouse, HT-29 xenograft	4 h post injection, biodistribution	relative to: tumour over kidney uptake	tumour-to-kidney ratio	0.39
CC(C)(O)c1ncc([S@](N)(=O)=NC(=O)Nc2c3c(cc4c2CCC4)CCC3)s1		measured: Psychiatric disorders	healthy human volunteers	oral, 10 mg once daily, 14 days, capsule formulation		subjects with adverse events	17%
C[n+]1ccc(/C=N/NC(=O)c2ccc3ccc4ccc(C(=O)N/N=C/c5cc[n+](C)c6ccccc56)nc4c3n2)c2ccccc21	22CTA telomeric G4-DNA antiparallel	FRET melting		1 µM, K10 buffer, DNA 0.2 µM		ΔTm	19.3 ± 0.5 °C
C/C(N)=N/C(=N\S(=O)(=O)c1ccc(C(F)(F)F)cc1)N1C[C@H](c2ccccc2)C(c2ccc(Cl)cc2)=N1			C57BL/6 mouse, brain	intravenous, 10 mg/kg		Cmax	83.6 ng/mL
OC1(C(F)(F)F)CCN(c2nc(Nc3ccnc(C(F)(F)F)c3)nc(-c3cccc(C(F)(F)F)n3)n2)C1 (centres unmarked)			Sprague-Dawley rat, both sexes, plasma	oral gavage, 5 mg/kg		AUC(0-24 h)	3720 ± 485 ng·h/mL
O=C(Nc1cnccc1-c1ccc([18F])nc1)c1ccnc(NC(=O)C2CC2)c1			FVB/NJ mouse, both sexes, liver	intravenous, 40 min		SUV	8.66
OC[C@H]1[C@@H](O)[C@H](O)[C@@H](O)CN1CCCCCOCC1CCCCC1	Ugcg	enzyme activity, inhibitor, fluorescence				IC50	70 nM
Fc1ccc(OCC2CN(Cc3cn4ccccc4n3)CCC2(F)F)cc1 (centres unmarked)		equilibrium dialysis	human plasma			fu	0.0045
C=C1C[C@]2(C(=O)OC)C=C(C(=O)Nc3cccc(C(=O)Nc4ccc(Nc5nccc(-c6cccnc6)n5)c(C)c4)c3)C(=O)[C@H]1C2			Wistar rat, male, plasma	10 µM, 30 min		compound remaining	0.89%
O=C(c1ccc(C2CCCCC2)cc1)N1CCC(F)CC1		hepatocyte stability	cryopreserved mouse hepatocytes	1 µM		hepatic clearance	78 mL/min/kg
O=C(N1CCCCC1)C12CC(c3ccccc3)(C1)C2(Br)Br		metabolic stability	human, liver microsomes	2 µM, 40 min, pH 7.4		compound remaining	11%
COc1ccc2c(c1)O[B-]1(c3ccccc3)OC(=O)C(c3ccccc3)=N[N+]1=C2 (centres unmarked)			toluene			fluorescence emission maximum	503 nm
Nc1ncc(-c2ccc(C3CCCCC3)cc2)cn1		liver microsome stability	rat liver microsomes	1 µM		hepatic clearance	40 mL/min/kg
OC[C@H]1[C@@H](O)[C@H](O)[C@@H](O)CN1CCCCCOCc1ccsc1	Ugcg	enzyme activity, inhibitor	RAW264.7	in situ, added: C6-NBD-ceramide		IC50	53 nM
O=C(NCc1cccc(Cl)c1)c1ccc(C2CCCCC2)cc1		liver microsome stability	mouse liver microsomes	1 µM		hepatic clearance	82 mL/min/kg
CC(C)C[C@H](NC(=O)[C@H](Cc1ccc(O)cc1)NC(=O)[C@@H](CCCNC(=N)N)NC(=O)[C@@H](CO)NC(=O)[C@H](Cc1ccccc1)NC(=O)[C@H](CC1CCCCC1)NC(=O)[C@H](CC(=O)O)NC(=O)CN1CCN(CC(=O)O)CCN(CC(=O)O)CCN(CC(=O)O)CC1)C(=O)N[C@@H](Cc1c[nH]c2ccccc12)C(=O)N[C@@H](CO)C(=O)O [copper-64 labelled]			human, upper large intestine	concentration not given, 24 h		activity concentration	2730 Bq/mL and 1780 Bq/mL and 2460 Bq/mL and 369 Bq/mL and 3570 Bq/mL and 2430 Bq/mL
C=CC(=O)Nc1cc(Nc2nccc(-c3cn(C)c4ccccc34)n2)c(OC)cc1N(C)CCNC		storage stability	human dried blood spot samples	30 d, -80 °C, MQC level	relative to: nominal concentration	percentage recovery	49%
CS(=O)(=O)c1ccc(-c2ccc(C3CCCCC3)cc2)cn1		hepatocyte stability	cryopreserved mouse hepatocytes	1 µM		hepatic clearance	67 mL/min/kg
CCCc1cc2cc(-n3nc(C(F)F)c4c3CC(C)(C)CC4=O)cc(N3CCC(O)CC3)c2c(=O)[nH]1		shake flask		24 h, pH 6.8, room temperature		aqueous solubility	1.08 µM (≈ 0.538 µg/mL)

Some of these lines once more:
SMILES	target or system	assay	test system	setting	scale	measurement	result
O=C(c1ccc(C2CCCCC2)cc1)N1CCC(F)CC1		hepatocyte stability	cryopreserved mouse hepatocytes	1 µM		hepatic clearance	78 mL/min/kg
O=C(N1CCCCC1)C12CC(c3ccccc3)(C1)C2(Br)Br		metabolic stability	human, liver microsomes	2 µM, 40 min, pH 7.4		compound remaining	11%
COc1ccc2c(c1)O[B-]1(c3ccccc3)OC(=O)C(c3ccccc3)=N[N+]1=C2 (centres unmarked)			toluene			fluorescence emission maximum	503 nm
